Experimental data gathered from unrelated publications.
Every numbered part comes from another study and shows a few of its results, in no order. Substitutions count along the parent as printed.

Block 1 — method: protein binding microarray; form: double-stranded DNA, one strand shown; sample: in vitro; concentration: not given; reference: not given; reading: higher = stronger binding
Target: Histone acetyltransferase KAT6A, winged helix 1, GST fusion (KAT6A, Homo sapiens, UniProt Q92794, residues 1-85)
Setting: 8-mer, flanks averaged, mean of 2 arrays, mostly near background
Target sequence (chain): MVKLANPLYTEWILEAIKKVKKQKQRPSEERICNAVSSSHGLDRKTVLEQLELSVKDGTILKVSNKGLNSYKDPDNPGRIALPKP
Oligonucleotide | E-score
GGCTTCCC | 0.0487
CCTCCTAC | -0.0762
CACGCGAA | 0.0693
CCTTGCCG | 0.258
ATGATCAG | -0.208

Block 2 — target: CCND1, cyclin fold, Cln2 fusion (human); method: yeast growth competition, sequencing; sample: yeast; setting: weak parent motif; reference: not given; reading: higher = stronger binding
Starting sequence: GMNC docking peptide (human); KNAKRNLSSEFAN; partner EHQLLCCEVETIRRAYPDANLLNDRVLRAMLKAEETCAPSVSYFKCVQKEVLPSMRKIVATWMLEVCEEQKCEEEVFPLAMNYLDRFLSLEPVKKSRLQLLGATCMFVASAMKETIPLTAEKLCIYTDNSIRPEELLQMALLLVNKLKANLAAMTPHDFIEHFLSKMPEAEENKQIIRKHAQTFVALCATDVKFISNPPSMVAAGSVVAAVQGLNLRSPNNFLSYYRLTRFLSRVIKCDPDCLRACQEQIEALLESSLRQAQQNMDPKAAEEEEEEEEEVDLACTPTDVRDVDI
Substitution | normalised enrichment score
KNAKRNLSSEAAN [F11A] | -0.0209
KHAKRNLSSEFAN [N2H] | 0.432
KNAKRNLSSEFGN [A12G] | 0.098

Block 3 — method: RNA Bind-n-Seq; form: RNA; sample: in vitro; concentration: 200 nM; setting: whole 134-nt RNA, ends assumed; added: 150 mM KCl; reference: input library; reading: higher = stronger binding
Target: Fragile X messenger ribonucleoprotein 1, C-terminal low-complexity region (Fmr1, Mus musculus, UniProt P35922)
Oligonucleotide | log2 enrichment
GGGAGUUCUACAGUCCGACGAUCUCUAUCCUGUCCCUCCACCCCACCCUCCACCUCAAUCCCCUCCCAUCUUCCCCAGACCUACCUCACCUACUAGGACCUGAGGCAGCUCCUUGGAAUUCUCGGGUGUCAAGG | 0.338
GGGAGUUCUACAGUCCGACGAUCGUCCUGUGCUACACAUCGUAUGUACCGAAUCGGGUGGGUUUUUUUGGGUUUUUUUGGGAAAGUAUUAUGUUACGCCGUUCGGAUCUGCACUGGAAUUCUCGGGUGUCAAGG | 0.394
GGGAGUUCUACAGUCCGACGAUCCCUGUGCUACACAUCGUAUGUACCGAAUCGGAAAAAAAGGGGAAAAAAAGGGAAAAAAAGGAAAGUAUUAUGUUACGCCGUUCGGAUCUGUGGAAUUCUCGGGUGUCAAGG | -1.05
GGGAGUUCUACAGUCCGACGAUCCUCCUGGAGUGGAUCCGGCGCACCAUCCCCUGGCUGGAGGACCGUGUGCCCCAAAAGACUAUCCAGGAGAUGCAGCAGAAGCUGGAGGACUGGAAUUCUCGGGUGUCAAGG | -1.7

Mixed results
Molecule | target | test | test system | conditions | scale | endpoint | value
PhoQ, residues 284 288 289 292 302 303 SSTLLI | PhoP, residues 12 14 15 18 19 VHSCL (Escherichia coli, UniProt P23836) | Sort-seq, refers to: YFP reporter | E. coli | PhoQ-PhoP variant library, added: 10 µM Mg2+ | reference: high Mg2+ state, higher = stronger signaling | fold induction | 12.3

A few entries again (block 1):
Oligonucleotide | E-score
ATGATCAG | -0.208
